{"data": "Assay results from different studies", "organism": "Escherichia coli", "note": "Protocols differ between the studies behind these lines."}
{"Compound": "CO/N=C(\\C(=O)N[C@@H]1C(=O)N2C(C(=O)[O-])=C(C[N+]3(C)CCCC3)CS[C@H]12)c1csc(N)n1", "assay": "broth microdilution", "test system": "ATCC 25922", "conditions": "5% CO2", "MIC": "0.03 µg/mL"}
{"Compound": "O=C(Cc1ccccc1)N[C@@H]1C(=O)N2C(C(=O)O)=C(CSc3cccc4cccnc34)CS[C@H]12", "test system": "2018-015", "MIC": "> 128 µg/mL"}
{"Compound": "Cc1c(CN(C)C(=O)/C=C/c2cnc3c(c2)CC(NC(=O)OC(C)(C)C)C(=O)N3)oc2ccccc12 (stereo not drawn)", "assay": "broth microdilution", "test system": "AR-0543", "MIC": "> 32 µg/mL"}
{"Compound": "CO[C@H]1/C=C/O[C@@]2(C)Oc3c(C)c(O)c4c(O)c(c(/C=N/Nc5ccc(C)c(Cl)c5)c(O)c4c3C2=O)NC(=O)/C(C)=C/C=C/[C@H](C)[C@H](O)[C@@H](C)[C@@H](O)[C@@H](C)[C@H](OC(C)=O)[C@H]1C", "test system": "ATCC 25922", "MIC": "20 µM"}
{"Compound": "CN(C)c1ccc2nc3ccc(=[N+](C)C)cc-3sc2c1", "test system": "ATCC BAA-196, resistant", "conditions": "18 h, 37 °C, LED light 10 min, 1.57 mW", "MIC": "> 128 µM"}
{"Compound": "CC(C)Oc1c(NC(=O)c2ccc(NC(=O)[C@H](CC(N)=O)NC(=O)c3ccc(NC(=O)c4ccc(C#N)cc4)cc3)cc2)ccc(C(=O)N/N=C/c2c(F)cc(C(=O)O)cc2F)c1O", "test system": "BW25113", "conditions": "18 h, 37 °C, irradiated at 365 nm, photostationary state", "MIC": "0.61 µg/mL"}
{"Compound": "O=C(O)c1cn(C2CC2)c2cc(N3CCNCC3)c(F)cc2c1=O", "test system": "tetracycline-resistant (pBR322)", "MIC": "0.5 µM"}
{"Compound": "CNC(C)C1CCC(N)C(OC2C(N)CC(N)C(OC3OCC(C)(O)C(NC)C3O)C2O)O1 (stereo not drawn)", "assay": "broth microdilution", "test system": "ATCC 25922", "conditions": "ambient air", "MIC": "0.5 µg/mL"}
{"Compound": "CO[C@@H]1[C@@H](OC(N)=O)[C@@H](O)[C@H](Oc2ccc3c(O)c(NC(=O)c4ccc(O)c(CC=C(C)C)c4)c(=O)oc3c2C)OC1(C)C", "test system": "ATCC 25922", "MIC": "160 µM"}
{"Compound": "N=C(N)c1ccc(OCCCCCCCCOc2ccc(C(=N)N)cc2)cc1", "test system": "BW25113", "conditions": "compound alone, rifampicin checkerboard", "MIC": "> 25 µg/mL"}
{"Compound": "CN(C)[C@@H]1C(O)=C(C(N)=O)C(=O)[C@@]2(O)C(O)=C3C(=O)c4c(O)cccc4[C@@](C)(O)[C@H]3C[C@@H]12", "assay": "broth microdilution", "conditions": "18 h", "MIC": "1 µg/mL"}
{"Compound": "CO[C@H]1/C=C/O[C@@]2(C)Oc3c(C)c(O)c4c(c3C2=O)C(=O)C=C(NC(=O)/C(C)=C\\C=C\\[C@H](C)[C@H](O)[C@@H](C)[C@@H](O)[C@@H](C)[C@H](OC(C)=O)[C@@H]1C)C4=O", "test system": "ATCC 25922", "MIC": "10 µM"}
{"Compound": "CC(C)Oc1c(NC(=O)c2ccc(NC(=O)[C@H](CC(N)=O)NC(=O)c3ccc(NC(=O)c4ccc(C#N)cc4)cc3)cc2)ccc(C(=O)N/N=C/c2ccc(C(=O)O)cc2)c1O", "test system": "BW25113", "conditions": "18 h, 37 °C, irradiated at 365 nm, photostationary state", "MIC": "0.01 µg/mL"}
{"Compound": "CCn1cc(C(=O)O)c(=O)c2ccc(C)nc21", "assay": "broth microdilution", "conditions": "18 h", "MIC": "4 µg/mL"}
{"Compound": "CO[C@H]1/C=C/O[C@@]2(C)Oc3c(C)c(O)c4c(c3C2=O)C(=O)C(N2CCN(c3nc(-c5ccccc5)cs3)CC2)=C(NC(=O)/C(C)=C/C=C/[C@H](C)[C@H](O)[C@@H](C)[C@@H](O)[C@@H](C)[C@H](OC(C)=O)[C@H]1C)C4=O", "test system": "ATCC 25922", "MIC": "20 µM"}
{"Compound": "CC[C@H](C)CCCCC(=O)N[C@@H](CCN)C(=O)N[C@H](C(=O)N[C@@H](CCN)C(=O)N[C@H]1CCNC(=O)[C@H]([C@@H](C)O)NC(=O)[C@H](CCN)NC(=O)[C@H](CCN)NC(=O)[C@H](CC(C)C)NC(=O)[C@@H](CC(C)C)NC(=O)[C@H](CCN)NC1=O)[C@@H](C)O", "assay": "broth microdilution", "test system": "ATCC 35218, cation-adjusted Mueller-Hinton broth", "conditions": "18 to 20 h, 37 °C, 0.002% polysorbate 80", "MIC": "0.125 µg/mL"}
{"Compound": "CO[C@@H]1CC(=O)O[C@H](C)C/C=C/C=C/[C@H](O[C@H]2CC[C@H](N(C)C)[C@@H](C)O2)[C@H](C)C[C@H](CC=O)[C@H](O[C@@H]2O[C@H](C)[C@@H](O[C@H]3C[C@@](C)(O)[C@@H](O)[C@H](C)O3)[C@H](N(C)C)[C@H]2O)C1", "test system": "ATCC 25922", "MIC": "320 µM"}
{"Compound": "C=C/C=C(\\C)CC[C@H]1C[C@@H](O)CC(=O)O1", "assay": "broth microdilution", "test system": "KCTC 2571", "MIC": "128 µg/mL"}
{"Compound": "N=C(N)c1ccc(OCc2ccccc2COc2ccc(C(=N)N)cc2)cc1", "test system": "mcr-3 polymyxin-resistant", "conditions": "compound alone", "MIC": "> 200 µg/mL"}
{"Compound": "C/C(=N/NC(=O)c1cn(-c2ccccc2)nc1-c1ccc(Cl)cc1)c1c(O)cc(C)oc1=O", "test system": "DH5α", "MIC": "300 µg/mL"}
{"Compound": "CC[C@H]1OC(=O)[C@H](C)[C@@H](O[C@H]2C[C@@](C)(OC)[C@@H](O)[C@H](C)O2)[C@H](C)[C@@H](O[C@@H]2O[C@H](C)C[C@H](N(C)C)[C@H]2O)[C@](C)(O)C[C@@H](C)CN(C)[C@H](C)[C@@H](O)[C@]1(C)O", "assay": "checkerboard broth microdilution", "test system": "Mueller-Hinton II broth", "conditions": "compound alone", "MIC": "8 µM"}
{"Compound": "CO[C@@H]1[C@@H](OC(C)=O)[C@H](C)[C@H](O)[C@H](C)[C@@H](O)[C@@H](C)/C=C/C=C(\\C)C(=O)Nc2c(/C=N/N3CCN(C)CC3)c(O)c3c4c(c(C)c(O)c3c2O)O[C@](C)(O/C=C/[C@@H]1OC)C4=O", "test system": "ATCC 25922", "MIC": "20 µM"}
{"Compound": "CCCCCCCCCCCCCCCC[N+](C)(C)C", "assay": "bacterial growth", "MIC": "~200 µM"}
{"Compound": "C[C@H]1c2cccc(O)c2C(=O)C2=C(O)[C@]3(O)C(=O)C(C(N)=O)=C(O)[C@@H](N(C)C)[C@@H]3[C@@H](O)[C@@H]21", "assay": "broth microdilution", "conditions": "18 h", "MIC": "4 µg/mL"}
{"Compound": "FC(F)(F)Oc1ccc(OCCn2c(CNCC34CC5CC(CC(C5)C3)C4)nc3ccccc32)cc1", "test system": "ATCC 25922", "MIC": "> 128 µg/mL"}
{"Compound": "O=[N+]([O-])c1ccc(O)c2ncccc12", "MIC": "12.5 µM"}
{"Compound": "N=C(N)c1ccc(OCc2ccc3ccc(COc4ccc(C(=N)N)cc4)cc3c2)cc1", "test system": "BW25113", "conditions": "compound alone, added: erythromycin checkerboard", "MIC": "> 200 µg/mL"}
{"Compound": "C[C@@H]1O[C@@H]1P(=O)(O)O", "assay": "broth microdilution", "test system": "ATCC 25922", "conditions": "ambient air", "MIC": "1 µg/mL"}
{"Compound": "CC[C@H]1OC(=O)[C@H](C)[C@@H](O[C@H]2C[C@@](C)(OC)[C@@H](O)[C@H](C)O2)[C@H](C)[C@@H](O[C@@H]2O[C@H](C)C[C@H](N(C)C)[C@H]2O)[C@](C)(O)C[C@@H](C)/C(=N\\OCOCCOC)[C@H](C)[C@@H](O)[C@]1(C)O", "test system": "ATCC 25922", "MIC": "160 µM"}
{"Compound": "CC(C)Oc1c(NC(=O)c2ccc(N3C(=O)C[C@H](NC(=O)c4ccc(NC(=O)c5ccc(C#N)cc5)cc4)C3=O)cc2)ccc(C(=O)N/N=C/c2ccnn2C)c1O", "test system": "BW25113", "conditions": "18 h, 37 °C, irradiated at 365 nm, photostationary state", "MIC": "0.34 µg/mL"}
{"Compound": "CC[C@H](C)[C@H](NC(=O)[C@H](C)NC(=O)CNC(=O)[C@H](C)NC(=O)[C@H](CCCCN)NC(=O)[C@H](CO)NC(=O)[C@H](C)NC(=O)[C@H](CCSC)NC(=O)CN)C(=O)N[C@@H](C)C(=O)NCC(=O)N[C@@H](CCCCN)C(=O)N[C@H](C(=O)N[C@@H](C)C(=O)N[C@@H](CCCCN)C(=O)N[C@H](C(=O)N[C@@H](C)C(=O)N[C@@H](CC(C)C)C(=O)N[C@@H](CCCCN)C(=O)N[C@@H](C)C(=O)N[C@@H](CC(C)C)C(=O)O)C(C)C)[C@@H](C)CC", "assay": "broth dilution", "test system": "K12 BW25113", "conditions": "18 h, 37 °C", "MIC": "38.1 µM"}
{"Compound": "N=C(N)c1ccc(OCc2ccc(-c3ccccc3)cc2COc2ccc(C(=N)N)cc2)cc1", "test system": "W3110", "conditions": "in combination, checkerboard, added: rifampicin", "MIC": "25 µg/mL"}
{"Compound": "CC1(C)SC2C(NC(=O)C(NC(=O)C3=C(O)C(Cc4ccsc4)NC3=O)c3ccccc3)C(=O)N2C1C(=O)O (stereo not drawn)", "assay": "broth microdilution", "test system": "BW25113 wild type", "conditions": "18 h", "MIC": "25 µg/mL"}
{"note": "Excerpt of the above:"}
{"Compound": "CO[C@@H]1[C@@H](OC(N)=O)[C@@H](O)[C@H](Oc2ccc3c(O)c(NC(=O)c4ccc(O)c(CC=C(C)C)c4)c(=O)oc3c2C)OC1(C)C", "test system": "ATCC 25922", "MIC": "160 µM"}
{"Compound": "O=[N+]([O-])c1ccc(O)c2ncccc12", "MIC": "12.5 µM"}
{"Compound": "CO[C@H]1/C=C/O[C@@]2(C)Oc3c(C)c(O)c4c(c3C2=O)C(=O)C(N2CCN(c3nc(-c5ccccc5)cs3)CC2)=C(NC(=O)/C(C)=C/C=C/[C@H](C)[C@H](O)[C@@H](C)[C@@H](O)[C@@H](C)[C@H](OC(C)=O)[C@H]1C)C4=O", "test system": "ATCC 25922", "MIC": "20 µM"}
